Published values of several laboratories.
Numbers after ± are the reported error.

`CN[C@@H](C)C(=O)c1ccccc1` has an Emax of 189% (ICSS facilitation, intracranial self-stimulation; rat; baseline: baseline).
Under “locomotor recovery time”, `CCCC(NC)C(=O)c1ccc2c(c1)OCO2` (racemic) is recorded as about 60 min (C57BL/6J male mice; sc, 30 mg/kg).
For `CC(C)C[C@H](CN)CC(=O)O`, the ED50 was 7.5 mg/kg (mechanical withdrawal threshold; mouse, paclitaxel neuropathic pain; oral).
Under “change in licking score”, `NCC1(CC(=O)O)CCCCC1` is recorded as -76% (mouse, formalin paw test; oral, 300 mg/kg, late phase; baseline: vehicle, direction not given).
For `CCCCCc1cc(O)c2c(c1)OC(C)(C)[C@@H]1CCC(C)=C[C@@H]21`, the ED50 was 4 µmol/kg (hypothermia (rectal temperature); ICR mouse, male; intravenous).
Under “liver weight, ratio, to body weight”, `C[C@]12CC[C@H]3[C@@H](CC=C4CC(O)CC[C@@]43CO)[C@@H]1CCC2O` (stereo partly drawn) is recorded as “decreased” (rat, GAN diet-induced MASH; intraperitoneal, 20 mg/kg daily, final two weeks, GAN diet 43 weeks; baseline: vehicle).
`CNC1(c2ccccc2Cl)CCCCC1=O` (racemic): “extracellular GABA AUC” “increased” (intracerebral microdialysis; BALB/cJ mice, medial prefrontal cortex; intraperitoneal, 10 mg/kg, 24 h, 0 to 120 min sampling; baseline: vehicle).
For `CNC(C)(C)C(=O)c1ccccc1`, the Emax was 189% (ICSS facilitation, intracranial self-stimulation; rat; baseline: baseline).
`CN1CC[C@]23c4c5ccc(O)c4O[C@H]2[C@@H](O)C=C[C@H]3[C@H]1C5` — result for “maximal possible effect”: about 30% (hot plate latency; ICR mice; intraperitoneal, 10 mg/kg, 3 h).
`CCN(CC)C(=O)[C@@H]1C=C2c3cccc4[nH]cc(c34)C[C@H]2N(C)C1`: “participants rating session more pleasant” 30% (healthy participants; dose not given, end-of-study assessment; baseline: compound over placebo).
`CCCCCn1cc(C(=O)C2C(C)(C)C2(C)C)c2ccccc21` has an ED50 of 1 µmol/kg (spontaneous locomotor activity, mouse tetrad; ICR mouse male; intravenous).
Under “evoked spike probability”, `C#CCN(C)[C@H](C)Cc1ccccc1` is recorded as 0.158 ± 0.0848 (dentate gyrus granule cells, APP/PS1 mice; oral, 10 mg/kg, 672 h, 4 weeks treatment, together with: 300 µA stimulation).
For `COC(=O)[C@H]1[C@@H](OC(=O)c2ccccc2)C[C@@H]2CC[C@H]1N2C`, “maximum response rate” read 0.281 ± 0.11 responses/s (self-administration; Sprague-Dawley rat, male; intravenous, 0.32 mg/kg/injection, fourth component).
With `CC1(C)C(C(=O)c2cn(CCCCCF)c3ccccc23)C1(C)C` the ED50 was 0.6 µmol/kg (hypothermia, mouse tetrad, refers to: rectal temperature; ICR mouse male; intravenous).
`CN1CC[C@]23c4c5ccc(O)c4O[C@H]2[C@@H](OS(=O)(=O)O)C=C[C@H]3[C@H]1C5`: “reduction of antinociceptive effect” about 10% (tail withdrawal latency test; STZ-diabetic rats; ip, 3 mg/kg daily, 9 days, tolerance).

Repeated from above:
For `CCCCCc1cc(O)c2c(c1)OC(C)(C)[C@@H]1CCC(C)=C[C@@H]21`, the ED50 was 4 µmol/kg (hypothermia (rectal temperature); ICR mouse, male; intravenous).
